Measured values gathered from unrelated publications.
Protocols differ between the studies behind these lines.
Cell line: COLO 205

| Compound | test | setting | scale | quantity | value |
| --- | --- | --- | --- | --- | --- |
| CCC(=C(c1ccc(Cl)cc1)c1ccc(OCCCN(C)C)cc1)c1ccc(OC)cc1 | cell growth or viability, SRB |  |  | GI50 | 0.92 µM |
| O=C(CSc1nnc(-c2ccccc2)o1)N1CCC(=C2c3ncccc3CCc3cc(Cl)cc(Br)c32)CC1 | cell growth or viability, SRB |  |  | IC50 | > 120 µM |
| CC/C=C\C/C=C\C/C=C\C/C=C\C/C=C\C/C=C\CCC(=O)Nc1ccn(C2OC(CO)C(O)C2(F)F)c(=O)n1 (stereo not shown) | NCI60 screen |  |  | TGI | 14.1 µM |
| CC(=O)OC[C@H]1O[C@@H](Sc2sc(C(=O)c3ccc(C)cc3)c(N)c2-c2nc3ccccc3s2)[C@H](OC(C)=O)[C@@H](OC(C)=O)[C@@H]1OC(C)=O | SRB | 10 µM, 48 h | relative to: untreated | growth | 82.1% |
| Clc1cc(Br)c2c(c1)CCc1cccnc1C2=C1CCNCC1 | cell growth or viability, SRB |  |  | IC50 | 60 µM |
| COc1cc(CNC(=O)C[C@H](C)CCC=C(C)C)ccc1OCc1cn(-c2ccc(Cl)cc2Cl)nn1 | SRB | 10 µM, 48 h |  | growth percent | 105% |
| Nn1c(SCC(=O)N2CCC(=C3c4ncccc4CCc4cc(Cl)cc(Br)c43)CC2)nnc1-c1ccccc1 | cell growth or viability, SRB |  |  | IC50 | < 15 µM |
| COc1cc(CNC(=O)C[C@H](C)CCC=C(C)C)ccc1O | SRB | 10 µM, 48 h |  | growth percent | 106% |
| O=C(CN1CCC(c2noc3cc(F)ccc23)CC1)N1CCC(=C2c3ncccc3CCc3cc(Cl)cc(Br)c32)CC1 | cell growth or viability, SRB |  |  | IC50 | 90 µM |
| COc1cc(CNC(=O)C[C@H](C)CCC=C(C)C)ccc1OCc1cn(-c2cccc([N+](=O)[O-])c2)nn1 | SRB | 10 µM, 48 h |  | growth percent | 94.4% |
| CC(=O)OC[C@H]1O[C@@H](Sc2sc(C(=O)c3ccc(Br)cc3)c(N)c2-c2nc3ccccc3s2)[C@H](OC(C)=O)[C@@H](OC(C)=O)[C@H]1OC(C)=O | SRB | 10 µM, 48 h | relative to: untreated | growth | 94.1% |
| COc1cc(CNC(=O)C[C@H](C)CCC=C(C)C)ccc1OCc1cn(-c2ccccc2F)nn1 | SRB | 10 µM, 48 h |  | growth percent | 112% |
| CC(Cc1ccc(Cl)cc1)=C(c1ccc(Cl)cc1)c1ccc(OCCN(C)C)cc1 | cell growth or viability, SRB |  |  | GI50 | 1 µM |

Some of these lines once more:
| Compound | test | setting | scale | quantity | value |
| --- | --- | --- | --- | --- | --- |
| CCC(=C(c1ccc(Cl)cc1)c1ccc(OCCCN(C)C)cc1)c1ccc(OC)cc1 | cell growth or viability, SRB |  |  | GI50 | 0.92 µM |
| CC(=O)OC[C@H]1O[C@@H](Sc2sc(C(=O)c3ccc(Br)cc3)c(N)c2-c2nc3ccccc3s2)[C@H](OC(C)=O)[C@@H](OC(C)=O)[C@H]1OC(C)=O | SRB | 10 µM, 48 h | relative to: untreated | growth | 94.1% |
